Results from different studies.
Numbered parts are unrelated; each lists some results of a single study.

Series 1 — technique: RNA Bind-n-Seq; molecule type: RNA; matrix: in vitro; concentration: not given; relative to: input RNA pool; direction: higher = stronger binding
Target: RING finger protein unkempt homolog, zinc fingers 1-6, GST-SBP tag (UNK, Homo sapiens, UniProt Q9C0B0, residues 30-357)
UniProt Q9C0B0, sequence (30-357, looked up): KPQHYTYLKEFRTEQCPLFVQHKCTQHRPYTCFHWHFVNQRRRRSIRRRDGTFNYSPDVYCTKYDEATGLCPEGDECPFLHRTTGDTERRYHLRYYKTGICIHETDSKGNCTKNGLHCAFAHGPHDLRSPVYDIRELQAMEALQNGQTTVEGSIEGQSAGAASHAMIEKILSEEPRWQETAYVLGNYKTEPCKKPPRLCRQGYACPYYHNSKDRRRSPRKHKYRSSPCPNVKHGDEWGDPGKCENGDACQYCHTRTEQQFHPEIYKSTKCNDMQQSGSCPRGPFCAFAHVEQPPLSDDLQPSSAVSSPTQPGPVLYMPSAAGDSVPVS
Notes: RNA with constant flanks, human and mouse sites, ends assumed
For `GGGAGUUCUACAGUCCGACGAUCAUUAUUAAGAAUAAAGUCACUGGAGAAAGUAAAGGCUUGGGCUACGUGCGCUAUUUAAAACCAUCACAAGCUGCCCAGGCAAUAGAAAACUGUGAUAGAAGUUUCAGAGCACUCUUGGCUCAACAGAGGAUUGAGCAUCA`, the bound/input enrichment was 0.451 ratio.
`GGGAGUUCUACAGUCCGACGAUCGAUACAGUAAUUAUGAAUCCUCCCUUUGGGACCAAAAAUAAUAAAGGGACAGAUAUGGCUUUUCUAAAGACUGCUUUGGAAAUGGCAAGAACAGCAGUAUAUUCCUUACACAAAUCCUCACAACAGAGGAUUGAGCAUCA` gave a bound/input enrichment of 0.138 ratio.
For `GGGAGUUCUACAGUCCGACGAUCAAGACAGAGCAGUACGUGGAACUUCACAAAGGCGAGGUGGUAGAUGUCAUGGUCAUUGGACGGCUAUGAUGGUGACCAACAGGAGAAAGUUUUGAUGCAUGUCCACAUAUCAUUGACUGUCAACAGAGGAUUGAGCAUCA`, the bound/input enrichment was 0.188 ratio.
The bound/input enrichment of `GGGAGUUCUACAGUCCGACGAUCUUUCCUUCUUUUGGAAGUGGAUUUCCUGCUUUUGAUACAGGCUUCACUCCAUUUGGGUCACUAGGUCAUGGGGGUCUCACUUCAUUUUCUUCAACGUCAUUUGGCGGCAGUGGAAUGGGCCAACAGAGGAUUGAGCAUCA` is reported as 0.166 ratio.
The bound/input enrichment of `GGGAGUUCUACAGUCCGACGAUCCACUGCAUUGCCACUGAGAACAGCUUCAAACAGACCAUAGCCAAGAUCAACUUCAAAGUUUUAGAUUCAGAAAUGGUGGCCGUUGUGACAGACAAGUGGUCCCCGUGGACAUGGGCUGGCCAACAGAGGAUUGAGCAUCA` is reported as 0.246 ratio.
`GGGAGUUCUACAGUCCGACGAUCCCUGGGCUUGCGCUGCUGUGCCAGCCGCAUCCAGGGCUCUCCCCGCUCUCCGCAGGCCUUUAUAGAGGCGGCCAGGGCAUGGAGCCCCUUCCAGCAAGAGCCAUGGGCACUCCGGCUCACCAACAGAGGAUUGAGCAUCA` gave a bound/input enrichment of 0.101 ratio.
`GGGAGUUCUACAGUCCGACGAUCCAUGGUUGGUGCUGCAUGGGUUUGAUUGUCUUUGUUUGGUUAUACAAUAUUGUUUUAAUUCCCAAAAUUGUCCUCUUUCCUCACUAUGAAGAAGGACAUAUUCCAGGCAUAUUAAUAAUACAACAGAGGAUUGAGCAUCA` gave a bound/input enrichment of 0.39 ratio.
For `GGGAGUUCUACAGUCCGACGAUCCUGGCAGUUGAGAGACUGUUGGAGCCUCUUGUUACACAGGUUACAACCCUUGUAAACACCAAUAGUAAAGGGCCCUCUAAUAAGAAGAGAGGUCGUUCUAAGAAGGCCCAUGUUUUGGCUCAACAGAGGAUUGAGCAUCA`, the bound/input enrichment was 4.53 ratio.

Series 2 — technique: aptamer microarray, sandwich; molecule type: DNA with 2'F-ANA; matrix: in vitro; concentration: 200 nM; with: Cy3 exosite-II aptamer, 400 nM; direction: higher = stronger binding; oligonucleotide: GGTTGGTGTGGTTGG
Target: Prothrombin, mature alpha-thrombin (F2, Homo sapiens, UniProt P00734)
Notes: whole 15-mer aptamer, many near background
`2'F-ANA at 5 6 10 11 14 15`: “mean fluorescence intensity” 107 a.u.
For `2'F-ANA at 1 2 4 5 7 8 9 11 15`, “mean fluorescence intensity” read 66.7 a.u.
Under “mean fluorescence intensity”, `2'F-ANA at 2 4 7 9 12 13` is recorded as 415 a.u.
`2'F-ANA at 6 7`: “mean fluorescence intensity” 570 a.u.
For `2'F-ANA at 3 4 5 7 14 15`, “mean fluorescence intensity” read 68.4 a.u.
`2'F-ANA at 3 4 5 6 9 11 13 14 15`: “mean fluorescence intensity” 53.8 a.u.
`2'F-ANA at 1 6 8 14`: “mean fluorescence intensity” 60.7 a.u.
`2'F-ANA at 2 4 6 7 9 10 12 15`: “mean fluorescence intensity” 98.9 a.u.
Under “mean fluorescence intensity”, `2'F-ANA at 1 2 3 5 11 12 14` is recorded as 66.3 a.u.
`2'F-ANA at 1 2 3 4 6 7 8 9 13 14`: “mean fluorescence intensity” 77.5 a.u.
For `2'F-ANA at 2 3 5 6 9 10 11 12 13 14 15`, “mean fluorescence intensity” read 50.8 a.u.
For `2'F-ANA at 1 3 7 9 10 12 13 14 15`, “mean fluorescence intensity” read 67.3 a.u.
For `2'F-ANA at 1 4 5 6 7 9 10 12 14`, “mean fluorescence intensity” read 45.1 a.u.
For `2'F-ANA at 1 3 4 8 9 10 11 12`, “mean fluorescence intensity” read 78.4 a.u.
Under “mean fluorescence intensity”, `2'F-ANA at 1 5 7 9 14 15` is recorded as 168 a.u.
For `2'F-ANA at 3 5 7 8 11`, “mean fluorescence intensity” read 136 a.u.
For `2'F-ANA at 1 2 3 4 5 6 9 11 12 14`, “mean fluorescence intensity” read 76.7 a.u.
For `2'F-ANA at 3 7 8 10 11 13`, “mean fluorescence intensity” read 615 a.u.
For `2'F-ANA at 1 2 4 6 7 8 10`, “mean fluorescence intensity” read 49.3 a.u.
Under “mean fluorescence intensity”, `2'F-ANA at 1 2 4 6 10 11 13 14 15` is recorded as 52.6 a.u.
Under “mean fluorescence intensity”, `2'F-ANA at 1 6 13 14 15` is recorded as 76.3 a.u.
`2'F-ANA at 1 2 3 5 6 8 9 12 13` — result for “mean fluorescence intensity”: 87.2 a.u.
`2'F-ANA at 1 2 4 5 7 8 14` — result for “mean fluorescence intensity”: 43 a.u.
`2'F-ANA at 1 3 4 5 6 9 11` — result for “mean fluorescence intensity”: 57.8 a.u.

Series 3 — technique: RNA Bind-n-Seq; molecule type: RNA; matrix: in vitro; concentration: 365 nM; relative to: no-protein control; direction: higher = stronger binding
Target: RNA binding protein fox-1 homolog 2, RRM domain, GST-SBP tag (RBFOX2, Homo sapiens, UniProt O43251-10, residues 100-194)
Notes: natural RNA segment, single round, ends assumed
Residues (chain): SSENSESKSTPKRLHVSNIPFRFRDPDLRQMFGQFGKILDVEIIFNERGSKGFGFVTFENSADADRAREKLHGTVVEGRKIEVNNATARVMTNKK
Under “RBNS enrichment (R)”, `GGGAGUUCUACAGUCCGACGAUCAAUUGGGCUUAAAAAUUGACAUGCAAUCUCUUAAGUUUUUUGUUCAGCUACUUCACACUGAGUACCUCAAAUCUGCUCUGGAGUCGAUUAUGCCACCUGUGUGUCAGGAUUGGAAUUCUCGGGUGCCAA` is recorded as 0.406.
`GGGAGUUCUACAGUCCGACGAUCUUAGUAAUAGAAAUCCAGUAUAUAAUGUAUCAAAUACAAUUGAGGUUCUAACCUAGUGUGUUAAUUUAUCUGAAUUUGGAUUUUUAAAAAGUAAUAAAAAGUUAAAUGUAUGGAAUUCUCGGGUGCCAA` — result for “RBNS enrichment (R)”: 0.482.
`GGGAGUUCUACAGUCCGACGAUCACAUCCCUGGGAUGGUGUGCUGUCUGGGCACCACGGUCUCCAUCCUCACUCCUGAGAGAUUUCUGCCUUCUGUGAGUUGGGUUAAAGCUCUGGAAUUAUCUACUAUCCCAUGGAAUUCUCGGGUGCCAA` — result for “RBNS enrichment (R)”: 0.287.
`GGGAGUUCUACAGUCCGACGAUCCUGAGGUCUCAGAAGAGAAACUUGACAGUGUCUGGUCCAUGGGGCUGCUCAGAAAAGCGCUGCUCUUGUAUGUCUCAUUGGUAUUGGAAAAAUAAACCUGUACAACCUGCUGGAAUUCUCGGGUGCCAA`: “RBNS enrichment (R)” 0.432.
`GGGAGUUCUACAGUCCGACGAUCUUAGAAAUGUAAGUUUUAAGGAUGGCCUUGUUGCCUUCUAUCAAGUUCUCUGGGACUUUGUAAUUUUGAUUACUACUAUUGAUACAUGGUUAUGGUCAGAAGGCCUCUUCUGGAAUUCUCGGGUGCCAA` — result for “RBNS enrichment (R)”: 0.254.
`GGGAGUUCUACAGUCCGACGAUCAAAAUUUGAGGGGAAGAGAAAAAACUUACACGAGCACCGAAUUUCAAAUAAACGAAAAUGAGACAUGACCUCUUGCCCCUGGCUGUUCCUUUAGGAGUUCCCAAGCCCCUUGGAAUUCUCGGGUGCCAA`: “RBNS enrichment (R)” 0.372.
For `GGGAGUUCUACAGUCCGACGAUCAAAUUUGCAAGAGAAUUAACACAUACACAGUUUGCCAAAUCAUAUCAAAUCUUCCCAUUGGAGAUAUAUUAGUACACUUAAAAUACCUAAUAUUCUGAUUUUUAUCUAUUUGGAAUUCUCGGGUGCCAA`, “RBNS enrichment (R)” read 0.758.
Under “RBNS enrichment (R)”, `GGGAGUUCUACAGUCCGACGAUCCUUGCUUUCCACUGACACUCAGUUCACCCUGCCACUCUGCAAGGUUUGCCUUGGGCAGCUGUGGGGUUUUUCCGAUCUUGCUAGCCCGCAGGCAUCUUGACAUCUUAGUAUGGAAUUCUCGGGUGCCAA` is recorded as 0.323.

Series 4 — technique: RNAcompete; molecule type: RNA; matrix: in vitro; concentration: 20 nM; notes: 7-mer, probes averaged, single round; relative to: mean of 7-mers; direction: higher = stronger binding
Target: PABPC1L2, full length, GST fusion (mouse, UniProt A0ABA7IW68)
Construct (chain): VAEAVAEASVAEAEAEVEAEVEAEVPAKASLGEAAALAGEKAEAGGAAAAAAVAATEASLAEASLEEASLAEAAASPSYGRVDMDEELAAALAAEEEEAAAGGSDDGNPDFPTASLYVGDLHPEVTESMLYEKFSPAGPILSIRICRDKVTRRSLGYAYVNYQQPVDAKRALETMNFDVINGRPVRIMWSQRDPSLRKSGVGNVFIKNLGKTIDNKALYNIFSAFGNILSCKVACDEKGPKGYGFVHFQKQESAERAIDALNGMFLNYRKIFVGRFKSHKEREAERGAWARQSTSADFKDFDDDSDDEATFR
With `UUUCCGG` the 7-mer Z-score was -0.4.
`CAGCCCC` has a 7-mer Z-score of -0.244.
For `UCGAAGU`, the 7-mer Z-score was -0.28.
`GGAGACC` has a 7-mer Z-score of -0.0047.
`UUUUAAA` has a 7-mer Z-score of 0.238.
For `UCACUAG`, the 7-mer Z-score was -0.155.
`CUAUUUA` has a 7-mer Z-score of 0.233.
`AGAAGAG` has a 7-mer Z-score of 0.213.
`GUGGGUG` has a 7-mer Z-score of 0.0243.
With `CAACGUU` the 7-mer Z-score was -0.405.
`CACCUUC` gave a 7-mer Z-score of -0.438.
`UGAGCGG` gave a 7-mer Z-score of 0.0424.
`UAUCGCC` gave a 7-mer Z-score of -0.271.
`CCCCUCG` has a 7-mer Z-score of -0.458.
For `UUUUCAC`, the 7-mer Z-score was -0.458.
For `ACGAUCU`, the 7-mer Z-score was -0.146.
For `AUUGCUU`, the 7-mer Z-score was -0.275.
`AUGUAAC` has a 7-mer Z-score of -0.0754.
`AUGUCUC` has a 7-mer Z-score of -0.309.
With `GUAGCUA` the 7-mer Z-score was -0.0899.
With `GCUGACC` the 7-mer Z-score was -0.0301.
For `GCCAGGC`, the 7-mer Z-score was -0.233.
`CUGUUUA` gave a 7-mer Z-score of -0.476.
The 7-mer Z-score of `CGGCUGU` is reported as -0.0917.
For `UCAGUUU`, the 7-mer Z-score was -0.306.

Some of these lines once more (series 2):
Under “mean fluorescence intensity”, `2'F-ANA at 1 5 7 9 14 15` is recorded as 168 a.u.
For `2'F-ANA at 3 5 7 8 11`, “mean fluorescence intensity” read 136 a.u.
For `2'F-ANA at 1 2 3 4 5 6 9 11 12 14`, “mean fluorescence intensity” read 76.7 a.u.
For `2'F-ANA at 3 7 8 10 11 13`, “mean fluorescence intensity” read 615 a.u.
For `2'F-ANA at 1 2 4 6 7 8 10`, “mean fluorescence intensity” read 49.3 a.u.
Under “mean fluorescence intensity”, `2'F-ANA at 1 2 4 6 10 11 13 14 15` is recorded as 52.6 a.u.
